Assay results collected from several papers.
Numbered parts are unrelated; each lists some results of a single study.

Series 1 — method: protein binding microarray; form: double-stranded DNA, one strand shown; medium: in vitro; concentration: not given; reference: not given; direction: higher = stronger binding; quantity: E-score
Target: Histone acetyltransferase KAT6A, winged helix 2, GST fusion (KAT6A, Homo sapiens, UniProt Q92794, residues 85-181)
Setting: 8-mer, flanks averaged, mean of 2 arrays, mostly near background
Construct (chain): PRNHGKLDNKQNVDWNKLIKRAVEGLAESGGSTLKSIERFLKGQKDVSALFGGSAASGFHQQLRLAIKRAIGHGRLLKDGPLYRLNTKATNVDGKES
ATTTGGTC: 0.0438
ACAGTATA: -0.184
CTCTTAGC: -0.0161
ACAACGAC: 0.047
CCGCGGCA: 0.148
ATTTCGTC: 0.073
AAGGTGAT: -0.0454
AACACATC: -0.15

Series 2 — read-out: enzyme activity; action: inhibitor; concentration: 20 µM; quantity: inhibition
Target: Replicase polyprotein 1ab, polymerase (rep, Severe acute respiratory syndrome coronavirus 2, UniProt P0DTD1)
CO[C@H]1[C@H](O)[C@H](O[C@H]2CC[C@@]3(C=O)[C@H](CC[C@@H]4[C@@H]3CC[C@]3(C)[C@@H](C5=CC(=O)OC5)CC[C@]43O)C2)O[C@@H](C)[C@@H]1O: 2.03%
CC(C)(C)NC(=O)[C@H]1CC[C@H]2[C@@H]3CC[C@H]4NC(=O)C=C[C@]4(C)[C@H]3CC[C@]12C: 1.1%
O=[N+]([O-])c1ccc(O)c([N+](=O)[O-])c1: 2.78%
C[C@H](CCC(=O)O)[C@H]1CC[C@H]2[C@@H]3[C@H](O)C[C@@H]4C[C@H](O)CC[C@]4(C)[C@H]3C[C@H](O)[C@]12C: -3.61%
CC(C)CCC[C@@H](C)[C@H]1CC[C@H]2[C@@H]3CC=C4C[C@@H](O)CC[C@]4(C)[C@H]3CC[C@]12C: -5.89%
CC1(COc2ccc3c(c2)ncn3-c2ccc3cccc(N4CCC(N)CC4)c3n2)COC1: 6.05%
CCCCC(=O)O[C@]1(C(=O)CO)[C@@H](C)C[C@H]2[C@@H]3CCC4=CC(=O)C=C[C@]4(C)[C@@]3(F)[C@@H](O)C[C@@]21C: 0.86%
COc1cc(C)c2c(Oc3cccc(C(F)(F)F)c3)c(OC)cc(NC(C)CCCN)c2n1 (stereo not shown): 1.22%
C[C@H](CCC(=O)NCCS(=O)(=O)O)[C@H]1CC[C@H]2[C@@H]3[C@@H](O)C[C@@H]4C[C@H](O)CC[C@]4(C)[C@H]3CC[C@]12C: -2.72%
Cc1cc(NC(=O)C2=C(O)c3ccccc3S(=O)(=O)N2C)no1: -0.05%
COC(=O)[C@H](Cc1ccccc1)NC(=O)[C@@H](N)CC(=O)O: -1.4%
Nc1nc2c(ccc3ccccc32)s1: -17.6%
COc1cc2c(NC3CCN(CC4CCCCC4)CC3)nc(N3CCCN(C(C)C)CC3)nc2cc1OCCCN1CCCCC1: -2.02%
CCCn1c(=O)[nH]c2nc(-c3ccc(S(=O)(=O)O)cc3)[nH]c2c1=O: 10.1%
O=C1CCCN1CC#CCN1CCCC1: -3.96%
CC(C)CC(N)=O: -5.68%
CN1C(=O)C(N2CCCCC2)S/C1=C\C(=O)O (stereo not shown): 2.85%
Cc1ccc(S(=O)(=O)N2CCC[C@H]2c2ccc(F)cc2)cc1: -6.06%
COc1ccc(-c2ccc3c(N4CCOC[C@@H]4C)nc(N4CCOC[C@@H]4C)nc3n2)cc1CO: 5.1%
CCS(=O)(=O)N1CCC[C@@H]2CN3CCc4cc(OC)ccc4[C@@H]3C[C@@H]21: -0.16%
CC(=O)N[C@H]1[C@@H](O)[C@H](O)[C@@H](CO)O[C@@H]1O: 1.64%
O=C(Cc1ccc(Cl)c(Cl)c1)N1CCCCC1CN1CCCC1 (stereo not shown): -0.01%
COc1cc2/c(=N/c3ccc(Br)cc3F)nc[nH]c2cc1OCC1CCN(C)CC1: -0.9%
COC(=O)[C@H](Cc1cccc(C(=N)N)c1)[C@@H](C)NC(=O)c1ccc(-c2cc[n+]([O-])cc2)cc1: -5.42%

Series 3 — method: universal PBM; form: double-stranded DNA, one strand shown; medium: in vitro; concentration: not given; direction: higher = stronger binding; quantity: E-score
Target: Sal-like protein 4, full length isoform B (SALL4, Homo sapiens, UniProt Q9UJQ4-2, residues 1-616)
Setting: 8-mer, flanks averaged, mean of replicates
AGTACTGC: -0.0214
CTGGCAGC: -0.275
CCGGTTGA: -0.304
CATCGGGA: -0.114
ATTCTGAG: 0.18
AACGAGCC: -0.0644
CTTGGCCC: -0.315
AGTTTAGA: 0.0712

Series 4 — read-out: enzyme activity; action: inhibitor; concentration: 20 µM; setting: hit confirmation; quantity: inhibition
Target: Replicase polyprotein 1ab, main protease (rep, Severe acute respiratory syndrome coronavirus 2, UniProt P0DTD1)
C=C1/C(=C\C=C2/CCC[C@]3(C)[C@@H]([C@H](C)CCCC(O)(C(F)(F)F)C(F)(F)F)CC[C@@H]23)C[C@@H](O)C[C@@H]1O: 4.8%
CC(=O)OC/C=C(C)/C=C/C=C(C)/C=C/C1=C(C)CCCC1(C)C: 47.7%
O=C(O)C(O)Cc1ccc(O)c(O)c1 (stereo not shown): 85.6%

Series 5 — cell line: HEK-293T/ACE2; concentration: 10 µM; time: 16 h; reference: vehicle; quantity: viability
O=c1[nH]c2ccccc2n1C1CCN(CCCC(c2ccc(F)cc2)c2ccc(F)cc2)CC1: 104%
Cc1noc(NS(=O)(=O)c2ccc(N)cc2)c1C: 99.5%
O=C(C1CCCCC1)N1CC(=O)N2CCc3ccccc3C2C1 (stereo not shown): 100%
CCCc1nc(C(C)(C)O)c(C(=O)OCc2oc(=O)oc2C)n1Cc1ccc(-c2ccccc2-c2nnn[nH]2)cc1: 103%

Series 6 — method: protein-binding microarray; form: double-stranded DNA, one strand shown; medium: in vitro; concentration: 2200 nM top; setting: 60-bp whole probe; with: salmon DNA 0.4 mg/ml; reference: random background probes; direction: higher = stronger binding; quantity: fitted relative affinity; all sequences stand within: GCCTAGCAC … GTCTTGATTCGCTTGACGCTGCTG
Target: Interferon regulatory factor 7, full length, phosphomimetic (IRF7, Homo sapiens, UniProt Q92985, residues 1-503, S471D/S472D/S475D/S476D/S477D/S483D/S484D/S487D)
UniProt Q92985, sequence (whole entry, unmodified, looked up): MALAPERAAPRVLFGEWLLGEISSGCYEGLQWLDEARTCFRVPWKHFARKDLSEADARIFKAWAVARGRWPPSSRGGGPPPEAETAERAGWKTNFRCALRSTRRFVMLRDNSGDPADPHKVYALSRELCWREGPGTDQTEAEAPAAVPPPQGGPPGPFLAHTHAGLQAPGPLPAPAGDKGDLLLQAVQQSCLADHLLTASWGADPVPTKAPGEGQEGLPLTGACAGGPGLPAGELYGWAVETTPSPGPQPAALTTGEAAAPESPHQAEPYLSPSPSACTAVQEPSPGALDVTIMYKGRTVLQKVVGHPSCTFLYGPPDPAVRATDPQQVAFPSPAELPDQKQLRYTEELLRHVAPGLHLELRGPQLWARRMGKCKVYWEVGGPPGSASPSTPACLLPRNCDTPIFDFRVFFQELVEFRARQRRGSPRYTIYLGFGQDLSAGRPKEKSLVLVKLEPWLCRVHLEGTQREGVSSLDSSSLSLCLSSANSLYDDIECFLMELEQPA
TTAGCTTTCGGTCTCGGTTAGTGCTAG: 6.75 z-score
TTAGATTTCGACACTGGGTTAGTGCTA: 0.975 z-score
GACGGTATGGGACTGGGGACGTGCTAG: -0.558 z-score
GACGAACTGTGGACTGGAGACGTGCTA: -0.236 z-score
TTAGATTGCAGACTGGATTAGTGCTAG: -0.274 z-score
CCGTGTTTCTCAAATGTTTTGGTGCTA: 2.12 z-score
GACGGTCTCCTATTGCTGACGTGCTAG: 0.817 z-score
TCAACAATTTCAGATTCCACTGTGCTA: 0.917 z-score

Excerpt of the above (series 2):
Cc1ccc(S(=O)(=O)N2CCC[C@H]2c2ccc(F)cc2)cc1: -6.06%
COc1ccc(-c2ccc3c(N4CCOC[C@@H]4C)nc(N4CCOC[C@@H]4C)nc3n2)cc1CO: 5.1%
CCS(=O)(=O)N1CCC[C@@H]2CN3CCc4cc(OC)ccc4[C@@H]3C[C@@H]21: -0.16%
CC(=O)N[C@H]1[C@@H](O)[C@H](O)[C@@H](CO)O[C@@H]1O: 1.64%
O=C(Cc1ccc(Cl)c(Cl)c1)N1CCCCC1CN1CCCC1 (stereo not shown): -0.01%
COc1cc2/c(=N/c3ccc(Br)cc3F)nc[nH]c2cc1OCC1CCN(C)CC1: -0.9%
COC(=O)[C@H](Cc1cccc(C(=N)N)c1)[C@@H](C)NC(=O)c1ccc(-c2cc[n+]([O-])cc2)cc1: -5.42%
